Published values pooled from the literature.
A part holds a random share of what one study measured.

Study 1
Target: Sal-like protein 4, full length isoform B (SALL4, Homo sapiens, UniProt Q9UJQ4-2, residues 1-616)
Technique: universal PBM
Form: double-stranded DNA, one strand shown
Medium: in vitro
Tested at: not given
Notes: 8-mer, flanks averaged, mean of replicates
Reading: higher = stronger binding
Quantity: E-score
Target sequence (chain): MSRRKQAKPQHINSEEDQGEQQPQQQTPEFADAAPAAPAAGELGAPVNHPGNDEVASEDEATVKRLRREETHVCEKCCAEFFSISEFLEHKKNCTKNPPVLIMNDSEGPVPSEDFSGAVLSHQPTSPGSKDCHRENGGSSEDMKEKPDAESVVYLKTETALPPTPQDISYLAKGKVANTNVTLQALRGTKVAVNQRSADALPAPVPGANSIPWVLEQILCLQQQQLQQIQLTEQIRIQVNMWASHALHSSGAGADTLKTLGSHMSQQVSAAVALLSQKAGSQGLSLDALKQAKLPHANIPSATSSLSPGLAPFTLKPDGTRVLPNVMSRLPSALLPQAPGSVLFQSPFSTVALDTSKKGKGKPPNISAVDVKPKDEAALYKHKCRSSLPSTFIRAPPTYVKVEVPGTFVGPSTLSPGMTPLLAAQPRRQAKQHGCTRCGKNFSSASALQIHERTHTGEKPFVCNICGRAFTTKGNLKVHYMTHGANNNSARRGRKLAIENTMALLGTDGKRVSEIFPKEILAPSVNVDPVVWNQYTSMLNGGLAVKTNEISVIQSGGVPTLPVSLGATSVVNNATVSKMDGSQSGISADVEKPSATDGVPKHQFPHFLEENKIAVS
Oligonucleotide = ATGGCAGA; value = -0.0808
Oligonucleotide = CTGCGAGA; value = -0.309
Oligonucleotide = AAGAAAAA; value = 0.301
Oligonucleotide = AGGTGAAT; value = -0.0172
Oligonucleotide = GAGAACGC; value = -0.0988
Oligonucleotide = ACAGTTAG; value = -0.0142

Study 2
Target: Interferon regulatory factor 3, full length, phosphomimetic (IRF3, Homo sapiens, UniProt Q14653, residues 1-427, S386D/S396D/S398D/S402D/T404D/S405D)
Chain of UniProt Q14653 (whole entry, unmodified, looked up): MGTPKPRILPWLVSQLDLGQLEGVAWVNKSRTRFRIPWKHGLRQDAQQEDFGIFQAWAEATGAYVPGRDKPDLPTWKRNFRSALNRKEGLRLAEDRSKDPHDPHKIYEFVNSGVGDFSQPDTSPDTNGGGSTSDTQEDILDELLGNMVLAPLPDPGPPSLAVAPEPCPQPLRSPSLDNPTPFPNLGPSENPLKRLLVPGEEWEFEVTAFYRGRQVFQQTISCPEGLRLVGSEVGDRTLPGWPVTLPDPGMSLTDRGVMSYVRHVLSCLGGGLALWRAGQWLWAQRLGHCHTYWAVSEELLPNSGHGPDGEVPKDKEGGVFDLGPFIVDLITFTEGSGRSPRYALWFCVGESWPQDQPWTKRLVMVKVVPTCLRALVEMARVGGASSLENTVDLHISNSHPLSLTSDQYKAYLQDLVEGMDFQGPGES
Technique: protein-binding microarray
Form: double-stranded DNA, one strand shown
Medium: in vitro
Tested at: 2540 nM top
Notes: 60-bp whole probe
Together with: salmon DNA 0.4 mg/ml
Reference: random background probes
Reading: higher = stronger binding
Quantity: fitted relative affinity
Constant ends, left off below: GCCTAGCAC … GTGCTAGGTCTTGATTCGCTTGACGCTGCTG
Oligonucleotide = GGTCTTTCTGTTTTCTCCAT; value = 3.09 z-score
Oligonucleotide = GACGATCTCAGTATCGAGCC; value = 0.7 z-score
Oligonucleotide = GACGATCTCAATTTCGAGAC; value = 1.36 z-score
Oligonucleotide = TTAGATCTCAGTCTCGATTG; value = 0.286 z-score
Oligonucleotide = CACAGGCTGCACAGAATGTA; value = -0.285 z-score
Oligonucleotide = GACGGACTGGGACTGGGCAC; value = -0.933 z-score
Oligonucleotide = GACGGTATCCTACTGCTGCC; value = 2.44 z-score

Other studies, line by line
Molecule = GFGFLLFICKLTF; target = human cyclin B2; assay = peptide binding, yeast competitive growth sequencing; test system = peptide, Saccharomyces cerevisiae, cyclin B2-Cln2 fusion; conditions = concentration not given, library 2; how to read = direction not given; quantity = binding enrichment score; value = -0.194
Molecule = PhoQ, residues 284 288 289 292 302 303 WSHMKI; target = PhoP, residues 12 14 15 18 19 AQALL (Escherichia coli, UniProt P23836); assay = Sort-seq, refers to: YFP reporter; test system = E. coli; conditions = PhoQ-PhoP variant library, together with: 10 µM Mg2+; how to read = reference: high Mg2+ state, higher = stronger signaling; quantity = fold induction; value = 16.7
Molecule = GSAKRRLFGEDPP; target = human cyclin A2; assay = cyclin docking binding, deep mutational scanning; test system = peptide, yeast cyclin A2-Cln2 system; how to read = direction not given; quantity = score minus score, wild type; value = 0

Some of these lines once more (other studies, line by line):
Molecule = GFGFLLFICKLTF; target = human cyclin B2; assay = peptide binding, yeast competitive growth sequencing; test system = peptide, Saccharomyces cerevisiae, cyclin B2-Cln2 fusion; conditions = concentration not given, library 2; how to read = direction not given; quantity = binding enrichment score; value = -0.194
